# Measurements from different studies.
# Lines come from different studies, so protocols differ. ± gives the spread as reported. Where no end group is shown, it is not given here.
Molecule,tested on,assay,system,conditions,scale,endpoint,result
GFVRI-OH,Schistosoma mansoni,EthoVision motion tracking,"peptide, adult worm pairs","10 µM, 5 min, 37 °C",baseline: pretreatment mobility,change in mobility,-12.8 ± 3.88%
CCCCOc1c(OC)cc(NC(C)CCCNC(=O)C(N)CCCCN)c2nc(C(C)(C)C)ccc12 (stereo not shown),Staphylococcus aureus,,MRSA ATCC 33591,,,MBC,> 20 mg/L
C=C1[C@@H](C)[C@H]2[C@H](Cc3ccccc3)NC(=O)[C@]23[C@H](O)/C=C/[C@](C)(O)C[C@@H](C)C/C=C/[C@H]3[C@@H]1O,Phyllosticta citricarpa,,Citrus sinensis leaf disc,"10 µL of 10 mg/mL, 21 days, methanol solution",,pycnidia number,172 ± 8
Cc1ccnc2c1NC(=O)c1cccnc1N2C1CC1,Human immunodeficiency virus 1,viral replication,human PBMC,6 days,,IC90,0.18 µM
COc1ccc(C=NNC(=O)CN2c3c(n[nH]c3-c3cccc(Cl)c3)-c3ccccc3S2(=O)=O)c(OC)c1OC,HIV-1,viral replication,PBMC,,,EC90,23.8 µM
insulin human,EcoHIV,radial arm water maze,infected C57BL/6J mice,"intranasal, dose not given, after discontinuation",,time to memory impairment return,≤ 24 h
LSTFFRLFNRSFTQGRRRRSVQWCA,Streptococcus sanguis,OD600,"peptide, ATCC 49295, 4 h single-species biofilm","128 µg/ml, 5 min exposure, OD600 read over 5 h",,biofilm growth,no effect
COc1cc(C2OCOCC2C)ccc1O (stereo not shown),Spodoptera frugiperda,insecticidal activity,larvae,topical,,LD50,4240 mg/kg
TRTRVSRLY,rhesus rotavirus,,"peptide, newborn BALB/c mice, RRV biliary atresia","intraperitoneal, 500 µg at birth and days 1 and 2, 21 days",,mice with biliary atresia symptoms,21.1%
CCCCCn1c(=O)[nH]c2cc(C(=O)NCCCN3CCCCC3)ccc2c1=O,Hepatitis C virus,"HCV infection, Gaussia luciferase reporter",Huh7.5.1 reporter cells,,"baseline: 10 µM cyclosporin A, DMSO, negative means inhibition",maximal response,-72.7%
ADVDHVFLRF-NH2 (C-amide),Drosophila melanogaster,heart rate,wandering third instar larval heart,"40 nL injected, 1 µM, 10 min",baseline: DMS,inhibition,64%
SSASAW,rhesus rotavirus,,"peptide, newborn BALB/c mice, RRV biliary atresia","intraperitoneal, 500 µg at birth and days 1 and 2, 21 days",,mortality,92.9%
DVDHVFLRF-NH2 (C-amide),Drosophila melanogaster,heart rate,adult heart,"40 nL injected, 1 µM, 10 min",baseline: DMS,inhibition,86%
PTAAGV,rhesus rotavirus,viral replication,"peptide, mouse cholangiocytes","concentration not given, 18 h, 37 °C",,viral yield,no effect
CCCCCCCOc1c(OC)cc(NC(C)CCCNC(=O)C(N)CCSC)c2nc(C(C)(C)C)ccc12 (stereo not shown),Staphylococcus aureus,microbial killing,ATCC33591 MRSA,drug-resistant strain,,MBC,10 mg/L
CC(=O)OC[C@]12Oc3ccc(-c4ccc(O)c5c4O[C@@]4(COC(C)=O)C(=C(O)C[C@@H](C)[C@H]4OC(C)=O)C5=O)c(O)c3C(=O)C1=C(O)C[C@@H](C)[C@H]2OC(C)=O,Phyllosticta citricarpa,,Citrus sinensis leaf discs,"10000 µg/mL, 504 h, methanol solution",,pycnidia count,73 ± 6
CC[C@H](C)CCCCC(=O)N[C@@H](CCN)C(=O)N[C@H](C(=O)N[C@@H](CCN)C(=O)N[C@H]1CCNC(=O)[C@H]([C@@H](C)O)NC(=O)[C@H](CCN)NC(=O)[C@H](CCN)NC(=O)[C@H](CC(C)C)NC(=O)[C@@H](Cc2ccccc2)NC(=O)[C@H](CCN)NC1=O)[C@@H](C)O,Klebsiella pneumoniae,,"carbapenem-resistant, human","inhaled plus intravenous, 25 mg inhaled plus 50 mg intravenous every 12 h, 5 d, together with: amikacin",,microbiological response at end of treatment,negative
TAVDHVFLRF-NH2 (C-amide),Drosophila melanogaster,heart rate,adult heart,"40 nL injected, 1 µM, 10 min",baseline: DMS,inhibition,95%
O=C(CN1c2c(n[nH]c2-c2cccc(Cl)c2)-c2ccccc2S1(=O)=O)NN=Cc1c(Cl)cccc1Cl,HIV-1,viral replication,PBMC,,,EC90,41.5 µM
CCCCCn1c(=O)[nH]c2cc(C(=O)NCCN3CCCCC3C)ccc2c1=O (stereo not shown),Hepatitis C virus,"HCV infection, Gaussia luciferase reporter",Huh7.5.1 reporter cells,,"baseline: 10 µM cyclosporin A, DMSO, negative means inhibition",maximal response,-67.6%
CC(C)n1ncc2c(C(=O)NCC3(C)CNC3)cc(C3CC3)nc21,Enterovirus D68,antiviral,"US/IL/14-18952, neonatal mice","intraperitoneal, 50 mg/kg daily, day 14 post-infection, immediate treatment",direction not given,paralysis score,0.4 ± 0.42
CC(=O)N(O)CCCCCNC(=O)CCC(=O)N(O)CCCCCNC(=O)CCC(=O)N(O)CCCCCN,Cryptococcus neoformans,microbial growth,,,,MIC80,> 200 µM
O=C(NCC1CCNCC1)c1cc2ccc(-c3ccoc3)cc2[nH]1,Zika virus,viral replication,"U-87 MG, FLR",1 µM,,inhibition,68%
COC(=O)N[C@H](C(=O)N1CCC[C@H]1c1ncc(-c2ccc(-c3ccc(-c4cnc([C@@H]5CCCN5C(=O)[C@@H](NC(=O)OC)C(C)C)[nH]4)cc3)cc2)[nH]1)C(C)C,hepatitis C virus,"viral replication, transient replicon",genotype 1a NS5A L31M,,,EC50,0.0021 ± 0.00061 µM
CCCCCCCCCCCC(=O)N/N=C/c1ccccc1Cl,"Candida albicans, Aspergillus niger",fungal growth,,,,MIC,26.3 µM
CC(=NNC(=O)CN1c2c(-c3ccccc3)n[nH]c2-c2ccccc2S1(=O)=O)c1cc(C)cs1,HIV-1,viral replication,PBMC,,,EC90,> 100 µM
CCOC(=O)[C@@]1(CS)N[C@H](C(=O)O)C(C)(C)S1,Proteus mirabilis,broth microdilution,clinical isolate,"compound at 100 mg/L, together with: meropenem",,MIC,16 mg/L
CCCCOc1c(OC)cc(NC(C)CCCNC(=O)C(N)CCCN)c2nc(C(C)(C)C)ccc12 (stereo not shown),Staphylococcus aureus,,MRSA ATCC 33591,,,MBC,> 20 mg/L
CC(C)C[C@H](NC(=O)[C@H](C)NC(=O)[C@H](CC(C)C)NC(=O)[C@H](CCCCN)NC(=O)[C@H](CC(C)C)NC(=O)[C@H](CCCCN)NC(=O)[C@@H](N)CCCCN)C(=O)N[C@@H](C)C(=O)N[C@@H](CCCCN)C(=O)N[C@@H](CC(C)C)C(=O)N[C@@H](C)C(=O)N[C@@H](CC(C)C)C(=O)N[C@@H](CC(C)C)C(=O)N[C@@H](Cc1c[nH]c2ccccc12)C(=O)N[C@@H](CCCCN)C(=O)N[C@@H](C)C(=O)N[C@@H](CC(C)C)C(=O)N[C@@H](C)C(=O)N[C@@H](CC(C)C)C(=O)N[C@@H](CCCCN)C(=O)N[C@@H](CC(C)C)C(=O)N[C@@H](CCCCN)C(=O)N[C@@H](CCCCN)C(=O)N[C@@H](C)C(N)=O,Pseudomonas aeruginosa,broth microdilution,PAO1,"overnight, 37 °C",,MIC50,2.23 ± 0.41 µM
O=C(NCc1ccc2c(c1)OCO2)c1ncc(Br)cc1F,Saccharomyces cerevisiae,microbial growth,,72 h,,MIC,100 µM
CCCCCCCOc1c(OC)cc(NC(C)CCCNC(=O)C(N)Cc2ccccc2)c2nc(C(C)(C)C)ccc12 (stereo not shown),Staphylococcus aureus,microbial killing,ATCC33591 MRSA,drug-resistant strain,,MBC,20 mg/L
TFFRLFNRSFTGRRRRSVQWCA,Streptococcus gordonii,OD600,"peptide, ATCC 10558, 4 h single-species biofilm","128 µg/ml, 5 min exposure, OD600 read over 5 h",,biofilm growth,no effect
CN[C@@](C)(C[18F])C(=O)O,,,"SCID mouse U87 xenograft, lung","15 min, post injection",,tissue uptake,4.1 ± 0.7 %ID/g
Cc1ccccc1-c1nc(CN2CCC(C(=O)NCCC3=CCCCC3)CC2)c(C)o1,Hepatitis C virus,"HCV infection, Gaussia luciferase reporter",Huh7.5.1 reporter cells,,"baseline: 10 µM cyclosporin A, DMSO, negative means inhibition",maximal response,-73.5%
COc1cccc(C=NNC(=O)CN2c3c(n[nH]c3-c3cccc(Cl)c3)-c3ccccc3S2(=O)=O)c1,HIV-1,viral replication,PBMC,,,EC90,> 10 µM
CC(=O)c1c(O)c(C)c(O)c2c1OC1=CC(=O)C(=C(C)N[C@@H](CCCNC(=N)N)C(=O)O)C(=O)[C@]12C,Candida tropicalis,broth microdilution,ATCC 750 fluconazole and amphotericin B resistant,24 and 48 h,,MIC99,24 µM
CC[C@H](C)[C@H](N)C(=O)N[C@@H](CC(C)C)C(=O)N1CCC[C@H]1C(=O)N[C@@H](Cc1c[nH]c2ccccc12)C(=O)N[C@@H](CCCCN)C(=O)N[C@@H](Cc1c[nH]c2ccccc12)C(=O)N1CCC[C@H]1C(=O)N[C@@H](Cc1c[nH]c2ccccc12)C(=O)N[C@@H](Cc1c[nH]c2ccccc12)C(=O)N1CCC[C@H]1C(=O)N[C@@H](Cc1c[nH]c2ccccc12)C(=O)N[C@@H](CCCNC(=N)N)C(=O)N[C@@H](CCCNC(=N)N)C(N)=O,Pseudomonas aeruginosa,broth microdilution,,"18 h, 10 clinical isolates",,MIC range,4 to 64 mg/L
CP(=O)(O)CCC(N)C(=O)O (stereo not shown),Amaranthus palmeri,,,"60 g/ha, 13 days, AMAPA, post-emergence spray","baseline: untreated (0%), complete kill (100%)",herbicidal activity,100%
CCCCCCCCOc1c(OC)cc(NC(C)CCCNC(=O)C(N)C(C)CC)c2nc(C(C)(C)C)ccc12 (stereo not shown),Staphylococcus aureus,microbial killing,ATCC33591 MRSA,drug-resistant strain,,MBC,> 20 mg/L
CCOP(=S)(OCC)Oc1cc(C)nc(C(C)C)n1,Hydra vulgaris,morphology,,92 h,,EC10,32 µM
TDVDHVFLRF-OH (C-acid),Drosophila melanogaster,gut contraction,"peptide, wandering third instar larval gut","injection, 1 µM, within 10 min",baseline: DMS effect,inhibition,19%
Cc1ccc(C(=O)N/N=C/c2ccccc2Cl)cc1,"Candida albicans, Aspergillus niger",fungal growth,,,,MIC,24.5 µM
CCCCCCOc1c(OC)cc(NC(C)CCCNC(=O)C(N)Cc2cc3ccccc3[nH]2)c2nc(C(C)(C)C)ccc12 (stereo not shown),Staphylococcus aureus,microbial killing,ATCC33591 MRSA,drug-resistant strain,,MBC,> 20 mg/L
LSTFFRLFNGRRRRSVQWCA,Streptococcus sanguis,OD600,"peptide, ATCC 49295, 4 h single-species biofilm","128 µg/ml, 5 min exposure, OD600 read over 5 h",,biofilm growth,no effect
CC(=NNC(=O)CN1c2c(-c3ccccc3)n[nH]c2-c2ccccc2S1(=O)=O)c1ccc[nH]1,HIV-1,viral replication,PBMC,,,EC90,> 100 µM
CCCCCCCCOc1c(OC)cc(NC(C)CCCNC(=O)C(N)Cc2cc3ccccc3[nH]2)c2nc(C(C)(C)C)ccc12 (stereo not shown),Staphylococcus aureus,microbial killing,ATCC33591 MRSA,drug-resistant strain,,MBC,> 20 mg/L
Cc1ccccc1-c1nc(CN2CCC(C(=O)NCCCN3CC(C)CC(C)C3)CC2)c(C)o1 (stereo not shown),Hepatitis C virus,"HCV infection, Gaussia luciferase reporter",Huh7.5.1 reporter cells,,"baseline: 10 µM cyclosporin A, DMSO, negative means inhibition",maximal response,-73%
VDHVFLRF-NH2 (C-amide),Drosophila melanogaster,gut contraction,adult gut,"1 µM, within 10 min",baseline: DMS effect,inhibition,100%
CCCCCCCOc1c(OC)cc(NC(C)CCCNC(=O)C(N)CCCNC(=N)N)c2nc(C(C)(C)C)ccc12 (stereo not shown),Staphylococcus aureus,,MRSA ATCC 33591,,,MBC,> 20 mg/L

# Excerpt of the above:
Molecule,tested on,assay,system,conditions,scale,endpoint,result
DVDHVFLRF-NH2 (C-amide),Drosophila melanogaster,heart rate,adult heart,"40 nL injected, 1 µM, 10 min",baseline: DMS,inhibition,86%
PTAAGV,rhesus rotavirus,viral replication,"peptide, mouse cholangiocytes","concentration not given, 18 h, 37 °C",,viral yield,no effect
CCCCCCCOc1c(OC)cc(NC(C)CCCNC(=O)C(N)CCSC)c2nc(C(C)(C)C)ccc12 (stereo not shown),Staphylococcus aureus,microbial killing,ATCC33591 MRSA,drug-resistant strain,,MBC,10 mg/L
CC(=O)OC[C@]12Oc3ccc(-c4ccc(O)c5c4O[C@@]4(COC(C)=O)C(=C(O)C[C@@H](C)[C@H]4OC(C)=O)C5=O)c(O)c3C(=O)C1=C(O)C[C@@H](C)[C@H]2OC(C)=O,Phyllosticta citricarpa,,Citrus sinensis leaf discs,"10000 µg/mL, 504 h, methanol solution",,pycnidia count,73 ± 6
CC[C@H](C)CCCCC(=O)N[C@@H](CCN)C(=O)N[C@H](C(=O)N[C@@H](CCN)C(=O)N[C@H]1CCNC(=O)[C@H]([C@@H](C)O)NC(=O)[C@H](CCN)NC(=O)[C@H](CCN)NC(=O)[C@H](CC(C)C)NC(=O)[C@@H](Cc2ccccc2)NC(=O)[C@H](CCN)NC1=O)[C@@H](C)O,Klebsiella pneumoniae,,"carbapenem-resistant, human","inhaled plus intravenous, 25 mg inhaled plus 50 mg intravenous every 12 h, 5 d, together with: amikacin",,microbiological response at end of treatment,negative
TAVDHVFLRF-NH2 (C-amide),Drosophila melanogaster,heart rate,adult heart,"40 nL injected, 1 µM, 10 min",baseline: DMS,inhibition,95%
